Measurements pooled from the literature.
± marks the error that the study gave.

Structure (SMILES) | test | system | conditions | endpoint | result
CC[C@H](C)[C@@H]([C@@H](CC(=O)N1CCC[C@H]1[C@H](OC)[C@@H](C)C(=O)N[C@H](C)[C@@H](O)c1ccccc1)OC)N(C)C(=O)[C@@H](NC(=O)[C@H](C(C)C)N(C)C(=O)OCc1ccc(NC(=O)[C@H](CCCNC(=N)N)NC(=O)[C@@H](NC(=O)CCCCCN2C(=O)CC(SC[C@H](NC(=O)[C@H](CC(=O)O)NC(=O)[C@H](CCCNC(=N)N)NC(=O)[C@H](CC(=O)O)NC(=O)CCCCn3cc(CCCC(=O)Nc4nnc(S(N)(=O)=O)s4)nn3)C(=O)O)C2=O)C(C)C)cc1)C(C)C (some centres unmarked) | LC-MS, measured: intact conjugate | mouse serum | 100 µg/mL, 37 °C | half-life | 1.8 h
CC[C@H](C)[C@H](NC(=O)[C@H](Cc1ccccc1)NC(=O)[C@H](CCC(=O)O)NC(=O)[C@H](CCCNC(=N)N)NC(=O)[C@H](C)NC(=O)[C@H](C)NC(=O)[C@H](CCC(N)=O)NC(=O)[C@H](CCC(=O)O)NC(=O)[C@H](CCC(=O)O)NC(=O)[C@H](CC(C)C)NC(=O)[C@H](Cc1ccc(O)cc1)NC(=O)[C@H](CO)NC(=O)[C@H](CO)NC(=O)[C@@H](NC(=O)[C@H](CC(=O)O)NC(=O)[C@H](CO)NC(=O)[C@@H](NC(=O)[C@H](Cc1ccccc1)NC(=O)[C@@H](NC(=O)CNC(=O)[C@H](CCC(=O)O)NC(=O)[C@H](C)NC(=O)CCc1c[nH]cn1)[C@@H](C)O)[C@@H](C)O)C(C)C)C(=O)N[C@@H](C)C(=O)N[C@@H](Cc1c[nH]c2ccccc12)C(=O)N[C@@H](CC(C)C)C(=O)N[C@H](C(=O)N[C@@H](CCCNC(=N)N)C(=O)NCC(=O)N[C@@H](CCCNC(=N)N)C(=O)N[C@@H](CCCCNC(=O)COCCOCCNC(=O)COCCOCCNC(=O)CC[C@H](NC(=O)CCCCCCCCCCCCCCCCC(=O)O)C(=O)O)C(=O)NCC(=O)NCC(=O)N[C@@H](CO)C(=O)N[C@@H](CCCCNc1c(NCCCCCN(O)C(=O)CCC(=O)NCCCCCN(O)C(=O)CCC(=O)NCCCCCN(O)C(C)=O)c(=O)c1=O)C(=O)O)C(C)C [zirconium-89 labelled] | ex vivo gamma counting | rat, muscle | subcutaneous, 3 nmol/kg, 24 h, with: [89Zr]-labelled peptide | tissue uptake | 0.07 %ID/g
CCCCCCCCCC(=O)N[C@@H](Cc1c[nH]c2ccccc12)C(=O)N[C@H](CC(N)=O)C(=O)N[C@@H](CC(=O)O)C(=O)N[C@@H]1C(=O)NCC(=O)N[C@@H](CCCNC(=O)CCC(=O)N2Cc3ccccc3-c3c(nnn3CCC[C@H](NC(=O)CCCCC[N+]3=C(C=CC4=CC(=CC=C5N(C)c6ccccc6C5(C)C)CCC4)C(C)(C)c4ccccc43)C(=O)NCCCCNC(=O)OC(C)(C)C)-c3ccccc32)C(=O)N[C@@H](CC(=O)O)C(=O)N[C@H](C)C(=O)N[C@@H](CC(=O)O)C(=O)NCC(=O)N[C@H](CO)C(=O)N[C@@H]([C@H](C)CC(=O)O)C(=O)N[C@@H](CC(=O)c2ccccc2N)C(=O)O[C@@H]1C |  | mouse plasma | 1 µM, up to 240 min, pH 7.4, 37 °C | half-life | > 4 h
O=C(O)C[C@H](NC(=O)[C@H](CC(=O)O)NC(=O)[C@H](CC(=O)O)NC(=O)[C@H](CC(=O)O)NC(=O)[C@H](CC(=O)O)NC(=O)[C@H](CC(=O)O)NC(=O)[C@H](CC(=O)O)NC(=O)[C@H](CC(=O)O)NC(=O)[C@H](CC(=O)O)NC(=O)[C@H](CC(=O)O)NC(=O)[C@H](CC(=O)O)NC(=O)[C@H](CCCCNC(=O)c1ccc(C(=O)NCCOCCOB2BBBBBB3BBBB3B2)cc1)NC(=O)CN1CCN(CC(=O)O)CCN(CC(=O)O)CCN(CC(=O)O)CC1)C(=O)O [gallium-67 labelled] | gamma counting | ddY mouse, male, 6 weeks old, small intestine | intravenous, 37 kBq, 10 min | tissue uptake | 0.59 %ID/g
Cc1ccccc1NC(=O)Nc1ccc(CC(=O)N[C@@H](CCCCNC(=O)/C=C/c2cccnc2)C(=O)N[C@@H](CCCC(=O)O)C(=O)NC2(C(=O)NCCOCCOCCOCCOCC(=O)N[C@@H](CCCCNC(=S)Nc3ccc(C[C@H]4CN(CC(=O)O)CCN(CC(=O)O)CCN4CC(=O)O)cc3)C(N)=O)CCCCC2)cc1 [gallium-68 labelled] |  | human serum | 2 h, 37 °C, 68Ga-labelled | dissociation | < 5%
C[C@@H](O)[C@@H](CO)NC(=O)[C@@H](CCCNC(=N)N)NC(=O)[C@@H]1CCCN1C(=O)[C@@H]1CSSC[C@H](NC(=O)[C@H](Cc2ccccc2)NC(=O)CN2CCN(CC(=O)O)CCN(CC(=O)O)CCN(CC(=O)O)CC2)C(=O)N[C@@H](Cc2ccc(O)cc2)C(=O)N[C@@H](Cc2ccccc2)C(=O)N[C@@H](CCC(N)=O)C(=O)N[C@@H](CC(N)=O)C(=O)N1 [gallium-68 labelled] |  | healthy Wistar rat, thyroid | intravenous, 8 MBq, 30 min, individual animals | tissue uptake | 0.28 %ID/g
CC(C)C[C@H](NC(=O)C[C@H](O)[C@H](CC(C)C)NC(=O)[C@H](Cc1c[nH]cn1)NC(=O)CNC(=O)[C@@H](NC(=O)[C@H](C)NC(=O)[C@H](Cc1c[nH]c2ccccc12)NC(=O)[C@H](CCC(N)=O)NC(=O)[C@@H](Cc1ccccc1)NC(=O)CCNC(=O)CCSc1nnc(NCCC(=O)NCCC(=O)NCCCC[C@H](NC(=O)N[C@@H](CCC(=O)O)C(=O)O)C(=O)O)c2c1CCC1C(CC2)C1COC(=O)NCCNC(=O)CC[C@H](C(=O)O)N1CCN(CC(=O)O)CCN(CC(=O)O)CC1)C(C)C)C(N)=O (some centres unmarked) [gallium-68 labelled] |  | athymic NMRI nude mouse, spleen | intravenous, dose not given, 2 h, with: bombesin 480 nmol (GRPR blocking) | tissue uptake | 0.82 %ID/g
N=C(N)NCCC[C@@H]1NC(=O)[C@H](CCCCNC(=O)c2ccc(CNC34CNCCNCC(N)(CNCCNC3)CNCCNC4)cc2)NC(=O)[C@@H](Cc2ccc(O)cc2)NC(=O)[C@H](CC(=O)O)NC(=O)CNC1=O [copper-64 labelled] | ex vivo biodistribution | male athymic nude mouse, PC-3 tumour, pancreas | 7.4 MBq, 48 h | tissue uptake | 0.8 ± 0.12 %ID/g
